# Assay results from different studies.
# “And” joins repeats or separate records; there may be more than shown. Numbers after ± are the reported error.
SMILES,test,test system,conditions,measurement,value
C[C@@H](NC(=O)N1C(=O)[C@H](Cc2ccnc(N)c2)[C@H]1C(=O)O)C1CCCCC1,,healthy adult Chinese volunteers,"continuous intravenous infusion, 0.6 mg/kg/h, 5-day infusion, CTCAE 5.0 grading",incidence of urine erythrocyte positive,0%
CO[C@H]1C[C@@H]2CC[C@@H](C)[C@@](O)(O2)C(=O)C(=O)N2CCCC[C@H]2C(=O)O[C@H]([C@H](C)C[C@@H]2CC[C@@H](OC(=O)NCCOCCOCCOCCOCCOCCOCCOCCOCCC(=O)N3CCc4cc(Cn5nc(-c6ccc7oc(N)nc7c6)c6c(N)ncnc65)ccc4C3)[C@H](OC)C2)C[C@@H](O)[C@H](C)/C=C(\C)[C@@H](O)[C@@H](OC)C(=O)[C@H](C)C[C@H](C)/C=C/C=C/C=C/1C,,patients with advanced solid tumours,"intravenous, 12 mg weekly, grade 3 or higher",dysgeusia incidence,0%
C[C@]1(CO)Cc2ncn(-c3ccc(C#N)c(Cl)c3)c2C(=O)O1,,"human, plasma","oral, 10 mg single dose, fasted",AUC(0-tz) adjusted geometric mean,2.32 µM·h
COc1cc2c(Oc3ccc4[nH]c(C)cc4c3F)ccnc2cc1OCC1(N)CC1,,paediatric recurrent refractory sarcoma,8 mg,abdominal pain incidence,25%
COc1cccc(Oc2ccccc2NC(=O)CNC(=O)c2cccc3ccccc23)c1,,"esterase-deficient SCID mice, male","oral, 40 mg/kg/day, 14 days, toxicity study",total protein,5.3 g/dL and 5.4 g/dL
CC(C)C[C@H](NC(=O)[C@H](C)NC(=O)[C@@H](NC(=O)[C@H](CCCNC(=N)N)NC(=O)[C@H](CC(C)C)NC(=O)[C@H](Cc1c[nH]c2ccccc12)NC(=O)[C@@H]1CCCN1C(=O)[C@@H](N)CCCCN)C(C)C)C(=O)N[C@@H](CS)C(=O)N1CCC[C@H]1C(=O)NCC(=O)O,,sheep red blood cells,"32 µM, 1 h, 37 °C",hemolysis,0.45% and 0.79% and 0.64%
CCN1CCN(Cc2ccc(Nc3ncc(F)c(-c4cc(F)c5nc6n(c5c4)[C@H](C)CCC6)n3)nc2)CC1,,advanced solid tumour patients,"dose not given, Phase Ia monotherapy","Neutropenia incidence, grade ≥3",8.3%
O=C(O)CCCOc1ccc(F)cc1-c1cc(-c2ccccc2C(F)(F)F)n(-c2ccccc2)n1,,"Crl:CD(SD) rats, female, plasma","iv, 25 µg/kg, 14 days",prothrombin time,9.5 s
O=C(Nc1ccccc1)C1CCN(C(=O)Oc2cccnc2)CC1,,healthy women,"oral, 20 mg, 7 days",adverse event Nasopharyngitis,0%
C[C@]12CC[C@@H]3c4ccc(O)cc4CC[C@H]3[C@@H]1CCC2=O,ultrafiltration,cow milk whey,200 nM nominal in whole milk,dose fraction in permeate,15.4%
Oc1ccc(CSCc2ccc(O)cc2)cc1,,ICR mice male,"oral, 6000 mg/kg, day 15, acute toxicity",body weight,37.5 ± 1.78 g
CCc1ccc(CC/C=C/c2ccc3c(c2)C(=O)CC3)cc1,,"Sprague-Dawley rat, male, blood","oral, 30 mg/kg/day, 14 days",prothrombin time,13.1 s
O=C(Nc1ccccc1)C1CCN(C(=O)Oc2cccnc2)CC1,measured: Tremor,healthy female human,"concentration not given, all doses pooled",adverse event incidence,4%

# Some of these lines once more:
SMILES,test,test system,conditions,measurement,value
O=C(Nc1ccccc1)C1CCN(C(=O)Oc2cccnc2)CC1,,healthy women,"oral, 20 mg, 7 days",adverse event Nasopharyngitis,0%
C[C@]12CC[C@@H]3c4ccc(O)cc4CC[C@H]3[C@@H]1CCC2=O,ultrafiltration,cow milk whey,200 nM nominal in whole milk,dose fraction in permeate,15.4%
